Assay results of several laboratories.
Every numbered part comes from another study and shows a few of its results, in no order. Substitutions count along the parent as printed.
UniProt P08588, sequence (whole entry, looked up): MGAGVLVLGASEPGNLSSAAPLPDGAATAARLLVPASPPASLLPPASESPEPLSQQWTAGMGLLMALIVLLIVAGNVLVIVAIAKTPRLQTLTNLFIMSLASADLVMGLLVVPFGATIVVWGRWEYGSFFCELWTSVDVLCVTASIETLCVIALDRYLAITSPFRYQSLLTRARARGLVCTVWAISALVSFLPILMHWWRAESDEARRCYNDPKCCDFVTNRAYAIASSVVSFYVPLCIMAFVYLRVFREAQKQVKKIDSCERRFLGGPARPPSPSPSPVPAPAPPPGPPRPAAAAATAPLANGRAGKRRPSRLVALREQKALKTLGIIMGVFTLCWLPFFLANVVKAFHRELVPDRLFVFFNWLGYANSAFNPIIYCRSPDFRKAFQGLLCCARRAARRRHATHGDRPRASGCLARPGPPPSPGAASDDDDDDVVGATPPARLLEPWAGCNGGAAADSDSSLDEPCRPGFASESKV

Set 1 — method: protein-binding microarray; molecule type: double-stranded DNA, one strand shown; medium: in vitro; concentration: 250 nM; setting: 60-bp whole probe; together with: salmon DNA 0.4 mg/ml; baseline: random background probes; reading: higher = stronger binding
Target: Interferon regulatory factor 7, full length, phosphomimetic (IRF7, Homo sapiens, UniProt Q92985, residues 1-503, S101K/S471D/S472D/S475D/S476D/S477D/S483D/S484D/S487D)
Shared flanks, not repeated: GCCTAGCAC … GTGCTAGGTCTTGATTCGCTTGACGCTGCTG
Residues (chain): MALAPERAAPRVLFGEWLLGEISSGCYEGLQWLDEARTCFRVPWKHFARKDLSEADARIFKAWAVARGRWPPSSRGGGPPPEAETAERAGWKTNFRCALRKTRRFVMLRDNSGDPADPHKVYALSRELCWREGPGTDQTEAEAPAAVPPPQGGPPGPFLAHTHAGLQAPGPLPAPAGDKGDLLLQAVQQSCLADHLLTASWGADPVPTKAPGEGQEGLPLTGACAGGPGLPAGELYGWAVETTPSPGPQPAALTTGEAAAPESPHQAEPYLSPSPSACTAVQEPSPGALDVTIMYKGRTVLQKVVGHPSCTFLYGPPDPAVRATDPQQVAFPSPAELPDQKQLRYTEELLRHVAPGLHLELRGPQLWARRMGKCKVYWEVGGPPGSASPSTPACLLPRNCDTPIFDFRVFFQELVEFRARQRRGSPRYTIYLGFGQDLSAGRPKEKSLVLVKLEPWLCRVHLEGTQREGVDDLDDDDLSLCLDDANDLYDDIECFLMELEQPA
Oligonucleotide	log fluorescence [z-score]
GACGGACTGGGACTGGTGAC	-0.643
CCATTTTGTGTTTTCATTTT	2.7
GAGGAGATGAGAAACGATGA	-0.569
TCAGTTTTAAATTCTAAACT	0.606
TTAGGGCTCGGTTTCGGTTA	10.6
CTATGTCTGTTTTTGCTTTC	1.05
TTAGTTTTCGGTCTCGGTTA	5.46
TCAAGTTTCACTGCTGCACT	0.493

Set 2 — target: BATF, bZIP domain (human); method: DHFR protein complementation; medium: yeast; baseline: wild-type JUN-FOS pair; reading: higher = stronger binding
Setting: single substitutions, most at no-binding floor
Starting sequence: JUN, bZIP domain (human); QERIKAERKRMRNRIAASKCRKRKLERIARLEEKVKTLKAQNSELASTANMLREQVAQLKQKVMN; partner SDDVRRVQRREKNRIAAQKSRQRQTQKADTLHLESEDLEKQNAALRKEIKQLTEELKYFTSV
Substitution	binding fitness [natural log]
A46D	-0.434
T37G	0.0133
L45Y	-0.321
V35R	-0.348
A46E	0.0343
A40G	-0.112
S47L	-0.0116
L38D	-1.14

Set 3 — method: RNAcompete; molecule type: RNA; medium: in vitro; concentration: 20 nM; setting: 7-mer, probes averaged, single round; baseline: mean of 7-mers; reading: higher = stronger binding
Target: PABPC1L2, full length, GST fusion (mouse, UniProt A0ABA7IW68)
Target sequence (chain): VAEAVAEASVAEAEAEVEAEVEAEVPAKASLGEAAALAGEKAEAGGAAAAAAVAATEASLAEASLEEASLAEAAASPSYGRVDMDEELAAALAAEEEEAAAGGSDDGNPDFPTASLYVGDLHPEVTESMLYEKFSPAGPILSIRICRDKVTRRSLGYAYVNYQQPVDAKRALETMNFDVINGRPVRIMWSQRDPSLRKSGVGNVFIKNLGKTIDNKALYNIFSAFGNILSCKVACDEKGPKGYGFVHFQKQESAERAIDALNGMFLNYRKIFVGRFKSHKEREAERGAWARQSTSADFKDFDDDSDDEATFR
Oligonucleotide	7-mer Z-score
GAGGGUC	0.102
UCUCAGC	-0.338
UUAAGGU	-0.155
CGACGGG	-0.0536
AAUUCUU	0.00617
UUUGGCU	-0.262
CUAGCAG	-0.275
GUGCCUC	-0.193

Set 4 — target: CCNB1, cyclin fold, Cln2 fusion (human); method: yeast growth competition, sequencing; medium: yeast; setting: strong parent motif; baseline: not given; reading: higher = stronger binding
Starting sequence: viral docking peptide; YKVKRRLVFGADD; partner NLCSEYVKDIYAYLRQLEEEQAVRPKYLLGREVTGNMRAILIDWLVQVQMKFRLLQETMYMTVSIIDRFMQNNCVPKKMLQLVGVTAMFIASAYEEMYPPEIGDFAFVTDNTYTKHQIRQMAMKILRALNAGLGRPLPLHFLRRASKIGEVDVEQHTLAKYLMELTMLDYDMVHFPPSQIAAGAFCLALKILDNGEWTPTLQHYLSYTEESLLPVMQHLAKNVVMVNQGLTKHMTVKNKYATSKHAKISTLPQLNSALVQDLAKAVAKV
Substitution	normalised enrichment score
D12S	2.45
R6L	0.647
D12M	2.46
D13A	1.67
A11L	4.06
R6F	-0.109
R6W	-0.113
A11M	3.64
G10Q	3.54
K2H	4.19
V8G	0.956
R5P	-0.112
A11R	2.94
V8K	2.62
F9W	1.45
R5Q	2.76
R6H	0.582
R5N	-0.321
D12P	2.63
R5Y	0.289
A11H	3.83
R6Q	2.64
K4Q	4.19
G10C	3.24
K4T	3.47

Other studies, line by line
SMILES	target	test	conditions	endpoint	result
CNC(=O)c1cc(C(=O)NC2CC2)cn(Cc2ccccc2)c1=O	Beta-1 adrenergic receptor (ADRB1, Homo sapiens, UniProt P08588)	binding, radioligand binding	10 µM	inhibition	-6.19%

Some of these lines once more (set 4):
Substitution	normalised enrichment score
K2H	4.19
V8G	0.956
R5P	-0.112
A11R	2.94
V8K	2.62
F9W	1.45
